Published values of several laboratories.
Protocols differ between the studies behind these lines.
Organism: Streptococcus pneumoniae

`CN[C@@H]1[C@H](O)[C@H](NC)[C@H]2O[C@]3(O)[C@H](O[C@@H]2[C@H]1O)O[C@H](C)C[C@H]3NC(=O)Cc1cc(Cl)ccn1` gave an MIC of 25 µg/mL (microbial growth, broth dilution; DAW27).
`c1ccc(CCNC2CCCc3c2[nH]c2ccc(C4CCCCC4)cc32)cc1` (centres unmarked) has an MIC of 1.3 µg/mL (broth microdilution; serotype 4, supplemented C+Y medium).
The MIC of `CC[C@H](C)[C@@H]1NC(=O)[C@H](CO)NC(=O)[C@H](CCCCN)NC(=O)[C@@H]2CSSC[C@@H](C(=O)N[C@@H](Cc3ccc(O)cc3)C(N)=O)NC(=O)[C@H](CCCCN)NC(=O)[C@@H]3CSSC[C@H](NC(=O)[C@H](CCCNC(=N)N)NC(=O)[C@H](CC(C)C)NC(=O)[C@H](CC(=O)O)NC(=O)[C@H](CC(=O)O)NC(=O)[C@H](CCC(=O)O)NC(=O)[C@H](CC(N)=O)NC(=O)[C@H](Cc4c[nH]c5ccccc45)NC(=O)C(C)(CC)NC(=O)CNC(=O)[C@H](CC(N)=O)NC(=O)[C@@H](NC(=O)CNC(=O)[C@H](Cc4ccccc4)NC(=O)CN)CSSC[C@H](NC(=O)[C@H](Cc4ccc(O)cc4)NC(=O)CNC(=O)CNC(=O)[C@H](CCCCN)NC(=O)[C@H](Cc4ccc(O)cc4)NC(=O)[C@H]4CCCN4C(=O)[C@@H]4CCCN4C1=O)C(=O)N[C@@H](C)C(=O)N[C@@H](CCCCN)C(=O)N1CCC[C@@H]1C(=O)NCC(=O)N[C@@H](Cc1ccccc1)C(=O)N[C@@H](C(C)C)C(=O)N3)C(=O)N[C@@H](Cc1c[nH]cn1)C(=O)N[C@@H](CC(N)=O)C(=O)N[C@@H](Cc1c[nH]cn1)C(=O)N2` (some centres unmarked) is reported as 0.5 µM (broth microdilution; 19F; 18 h).
The MIC of `CN[C@@H]1[C@H](O)[C@H](NC)[C@H]2O[C@]3(O)[C@H](O[C@@H]2[C@H]1O)O[C@H](C)C[C@H]3NC(=O)Cc1ccc(F)cn1` is reported as 12.5 µg/mL (microbial growth, broth dilution; DAW27).
The MIC of `CC[C@H](C)[C@@H]1NC(=O)[C@H](CO)NC(=O)C(C)(CCCCN)NC(=O)[C@@H]2CSSC[C@@H](C(=O)N[C@@H](Cc3ccc(O)cc3)C(N)=O)NC(=O)[C@H](CCCCN)NC(=O)[C@@H]3CSSC[C@H](NC(=O)[C@H](CCCNC(=N)N)NC(=O)C(C)(CC(C)C)NC(=O)[C@H](CC(=O)O)NC(=O)[C@H](CC(=O)O)NC(=O)[C@H](CCC(=O)O)NC(=O)[C@H](CC(N)=O)NC(=O)[C@H](Cc4c[nH]c5ccccc45)NC(=O)C(C)(CC)NC(=O)CNC(=O)[C@H](CC(N)=O)NC(=O)[C@@H](NC(=O)CNC(=O)[C@H](Cc4ccccc4)NC(=O)CN)CSSC[C@H](NC(=O)[C@H](Cc4ccc(O)cc4)NC(=O)CNC(=O)CNC(=O)[C@H](CCCCN)NC(=O)[C@H](Cc4ccc(O)cc4)NC(=O)[C@H]4CCCN4C(=O)[C@@H]4CCCN4C1=O)C(=O)N[C@@H](C)C(=O)N[C@@H](CCCCN)C(=O)N1CCC[C@@H]1C(=O)NCC(=O)N[C@@H](Cc1ccccc1)C(=O)N[C@@H](C(C)C)C(=O)N3)C(=O)N[C@@H](Cc1c[nH]cn1)C(=O)NC(C)(C)C(=O)N[C@@H](Cc1c[nH]cn1)C(=O)N2` (some centres unmarked) is reported as 1 µM (broth microdilution; BS-442; 18 h).
For `Oc1c(Br)cc(Br)c2nc3cc(Cl)ccc3nc12`, the MIC was 0.1 µM (broth microdilution; 6303).
The MIC of `CC[C@H](C)[C@@H]1NC(=O)[C@H](CO)NC(=O)C(C)(CCCCN)NC(=O)[C@@H]2CSSC[C@@H](C(=O)N[C@@H](Cc3ccc(O)cc3)C(N)=O)NC(=O)[C@H](CCCCN)NC(=O)[C@@H]3CSSC[C@H](NC(=O)[C@H](CCCNC(=N)N)NC(=O)C(C)(CC(C)C)NC(=O)[C@H](CC(=O)O)NC(=O)[C@H](CC(=O)O)NC(=O)[C@H](CCC(=O)O)NC(=O)[C@H](CC(N)=O)NC(=O)[C@H](Cc4c[nH]c5ccccc45)NC(=O)[C@@H]4CCCN4C(=O)CNC(=O)[C@H](CC(N)=O)NC(=O)[C@@H](NC(=O)CNC(=O)[C@H](Cc4ccccc4)NC(=O)CN)CSSC[C@H](NC(=O)[C@H](Cc4ccc(O)cc4)NC(=O)CNC(=O)CNC(=O)[C@H](CCCCN)NC(=O)[C@H](Cc4ccc(O)cc4)NC(=O)CNC(=O)[C@H](CCCCN)NC1=O)C(=O)N[C@@H](C)C(=O)N[C@@H](CCCCN)C(=O)NCC(=O)NCC(=O)N[C@@H](Cc1ccccc1)C(=O)N[C@@H](C(C)C)C(=O)N3)C(=O)N[C@@H](Cc1c[nH]cn1)C(=O)NC(C)(C)C(=O)N[C@@H](Cc1c[nH]cn1)C(=O)N2` (some centres unmarked) is reported as 0.13 µM (broth microdilution; D39; 18 h).
`Oc1c(Br)cc(Br)c2nc3cc(C(F)(F)F)ccc3nc12` gave an MIC of 0.04 µM (broth microdilution; 6303).
For `O=C(c1ccccc1O)c1[nH]c(Cl)c(Cl)c1-n1c(C(=O)c2ccccc2O)cc(Cl)c1Cl`, the MIC was 0.25 µM (microbial growth; ATCC49619).
The MIC of `CC[C@H](C)[C@@H]1NC(=O)[C@H](CC(C)C)NC(=O)[C@@H](NC(=O)[C@H](CCC(N)=O)NC(=O)[C@H](CCCCN)NC(=O)[C@H](CC(N)=O)NC(=O)[C@H](Cc2ccc(O)cc2)NC(=O)[C@@H]2CCC(=O)NCC(=O)NCC(=O)NCC(=O)NCC(=O)N[C@@H](CCCNC(=N)N)C(=O)NCC(=O)N[C@@H](Cc3ccc(O)cc3)C(=O)N2)CSSC[C@@H](C(=O)O)NC(=O)[C@H](Cc2ccccc2)NC1=O` is reported as over 128 µg/mL (broth microdilution; ATCC 49619, penicillin intermediate; overnight, 37 °C).
With `c1ccc2c(c1)nc(CNCC13CC4CC(CC(C4)C1)C3)n2CC1CC1` the MIC was 2 µg/mL (ATCC 49619).

Some of these lines once more:
`Oc1c(Br)cc(Br)c2nc3cc(C(F)(F)F)ccc3nc12` gave an MIC of 0.04 µM (broth microdilution; 6303).
